Measured values gathered from unrelated publications.
Protocols differ between the studies behind these lines.
GLP1R: Glucagon-like peptide 1 receptor (GLP1R, Homo sapiens, UniProt P43220)
DCN1-like protein 1: DCN1-like protein 1 (Homo sapiens, UniProt Q96GG9)
Sequence of UniProt Q96GG9 (whole entry, looked up): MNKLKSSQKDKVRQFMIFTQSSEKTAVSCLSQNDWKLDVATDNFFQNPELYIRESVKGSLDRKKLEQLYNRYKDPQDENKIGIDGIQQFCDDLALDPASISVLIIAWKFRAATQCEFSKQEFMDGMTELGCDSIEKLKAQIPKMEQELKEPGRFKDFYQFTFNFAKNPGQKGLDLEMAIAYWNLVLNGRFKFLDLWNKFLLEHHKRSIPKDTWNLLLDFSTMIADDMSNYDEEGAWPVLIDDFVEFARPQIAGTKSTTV
Sequence of UniProt Q92945 (whole entry, looked up): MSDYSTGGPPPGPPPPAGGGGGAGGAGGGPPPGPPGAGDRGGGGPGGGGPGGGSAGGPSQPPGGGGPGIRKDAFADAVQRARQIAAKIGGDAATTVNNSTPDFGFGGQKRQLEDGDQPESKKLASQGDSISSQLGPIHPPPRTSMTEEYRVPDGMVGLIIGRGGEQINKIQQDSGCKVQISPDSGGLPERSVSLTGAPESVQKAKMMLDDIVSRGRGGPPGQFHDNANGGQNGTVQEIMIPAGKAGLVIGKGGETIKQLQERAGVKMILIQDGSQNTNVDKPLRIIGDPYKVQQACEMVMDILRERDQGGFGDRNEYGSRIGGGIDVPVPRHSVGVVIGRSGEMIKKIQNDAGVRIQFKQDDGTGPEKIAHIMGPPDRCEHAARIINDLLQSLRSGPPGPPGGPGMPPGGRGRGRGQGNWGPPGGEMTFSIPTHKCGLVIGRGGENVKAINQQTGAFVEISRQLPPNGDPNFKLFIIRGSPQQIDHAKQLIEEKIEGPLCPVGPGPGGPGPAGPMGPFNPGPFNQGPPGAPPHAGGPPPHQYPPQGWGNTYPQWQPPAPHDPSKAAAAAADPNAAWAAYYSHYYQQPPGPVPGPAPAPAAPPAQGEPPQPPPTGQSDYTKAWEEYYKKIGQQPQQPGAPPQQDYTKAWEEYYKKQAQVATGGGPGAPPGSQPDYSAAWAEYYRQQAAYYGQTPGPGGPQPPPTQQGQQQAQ
Sequence of UniProt P28335 (whole entry, looked up): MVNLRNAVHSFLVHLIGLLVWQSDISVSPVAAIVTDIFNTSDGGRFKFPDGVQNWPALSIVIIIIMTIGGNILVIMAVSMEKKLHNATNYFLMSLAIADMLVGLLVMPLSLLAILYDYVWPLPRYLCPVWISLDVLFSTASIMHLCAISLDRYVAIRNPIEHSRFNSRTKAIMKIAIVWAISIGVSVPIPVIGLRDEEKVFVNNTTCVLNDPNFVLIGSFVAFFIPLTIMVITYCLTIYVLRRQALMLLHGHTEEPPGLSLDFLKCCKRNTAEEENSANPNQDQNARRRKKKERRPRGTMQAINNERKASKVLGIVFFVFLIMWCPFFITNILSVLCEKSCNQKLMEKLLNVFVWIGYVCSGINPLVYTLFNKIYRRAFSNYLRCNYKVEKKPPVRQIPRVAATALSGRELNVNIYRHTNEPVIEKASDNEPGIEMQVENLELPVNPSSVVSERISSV
Sequence of UniProt P42892 (whole entry, looked up): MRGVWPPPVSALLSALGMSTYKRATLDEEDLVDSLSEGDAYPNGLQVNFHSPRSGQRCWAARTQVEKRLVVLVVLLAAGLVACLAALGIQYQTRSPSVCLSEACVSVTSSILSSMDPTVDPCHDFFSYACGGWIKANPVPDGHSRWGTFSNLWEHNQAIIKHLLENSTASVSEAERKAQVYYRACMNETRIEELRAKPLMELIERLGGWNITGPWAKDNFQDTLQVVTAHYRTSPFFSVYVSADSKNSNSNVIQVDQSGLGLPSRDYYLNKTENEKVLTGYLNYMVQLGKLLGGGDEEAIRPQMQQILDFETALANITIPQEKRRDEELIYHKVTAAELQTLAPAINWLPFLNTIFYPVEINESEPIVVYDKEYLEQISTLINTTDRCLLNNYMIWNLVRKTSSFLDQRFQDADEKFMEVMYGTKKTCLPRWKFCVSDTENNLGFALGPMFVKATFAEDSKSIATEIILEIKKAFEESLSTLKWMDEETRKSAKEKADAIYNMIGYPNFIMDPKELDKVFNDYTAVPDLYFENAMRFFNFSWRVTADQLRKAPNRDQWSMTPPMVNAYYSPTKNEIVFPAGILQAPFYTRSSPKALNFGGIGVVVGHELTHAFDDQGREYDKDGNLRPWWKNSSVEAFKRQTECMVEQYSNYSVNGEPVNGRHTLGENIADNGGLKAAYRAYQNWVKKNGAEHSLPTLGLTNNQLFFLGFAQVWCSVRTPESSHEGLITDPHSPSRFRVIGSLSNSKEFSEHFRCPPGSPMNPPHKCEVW

The Ki of `COc1ccc(N=Nc2ccc3[nH]cc(CCN(C)C)c3c2)cc1` is reported as 348 nM (5-hydroxytryptamine receptor 2C (HTR2C, Homo sapiens, UniProt P28335); binding, radioligand binding; ambient light).
`CC[C@H](C)[C@H](NC(=O)[C@H](Cc1ccccc1)NC(=O)[C@H](CCC(=O)O)NC(=O)[C@H](CCCNC(=N)N)NC(=O)[C@H](C)NC(=O)[C@H](C)NC(=O)[C@H](CCC(N)=O)NC(=O)[C@H](CCC(=O)O)NC(=O)[C@H](CCC(=O)O)NC(=O)[C@H](CC(C)C)NC(=O)[C@H](Cc1ccc(O)cc1)NC(=O)[C@H](CO)NC(=O)[C@H](CO)NC(=O)[C@@H](NC(=O)[C@H](CC(=O)O)NC(=O)[C@H](CO)NC(=O)[C@@H](NC(=O)[C@H](Cc1ccccc1)NC(=O)[C@@H](NC(=O)CNC(=O)[C@H](CCC(=O)O)NC(=O)[C@H](C)NC(=O)CCc1cnc[nH]1)[C@@H](C)O)[C@@H](C)O)C(C)C)C(=O)N[C@@H](C)C(=O)N[C@@H](Cc1c[nH]c2ccccc12)C(=O)N[C@@H](CC(C)C)C(=O)N[C@H](C(=O)N[C@@H](CCCNC(=N)N)C(=O)NCC(=O)N[C@@H](CCCNC(=N)N)C(=O)N[C@@H](CCCCNC(=O)COCCOCCNC(=O)COCCOCCNC(=O)CC[C@H](NC(=O)CCCCCCCCCCCCCCCCC(=O)O)C(=O)O)C(=O)NCC(=O)NCC(=O)N[C@@H](CO)C(=O)N[C@@H](CCCCNC(=O)[C@H](CCCCNc1c(NCCCCCN(O)C(=O)CCC(=O)NCCCCCN(O)C(=O)CCC(=O)NCCCCCN(O)C(C)=O)c(=O)c1=O)Nc1c(NCCCCCN(O)C(=O)CCC(=O)NCCCCCN(O)C(=O)CCC(=O)NCCCCCN(O)C(C)=O)c(=O)c1=O)C(=O)O)C(C)C` gave an EC50 of 0.14 nM (GLP1R; cAMP reporter gene, agonist, CRE luciferase; BHK; without Zr, 1% HSA).
For `COc1cc(Nc2ncc(F)c(Nc3ccc4c(n3)NC(=O)C(C)(C)O4)n2)cc(OC)c1OC`, the IC50 was over 10000 nM (Endothelin-converting enzyme 1 (ECE1, Homo sapiens, UniProt P42892); enzyme activity, inhibitor).
The EC50 of `CC[C@H](C)[C@H](NC(=O)[C@H](Cc1ccccc1)NC(=O)[C@H](CCC(=O)O)NC(=O)[C@H](CCCNC(=N)N)NC(=O)[C@H](C)NC(=O)[C@H](C)NC(=O)[C@H](CCC(N)=O)NC(=O)[C@H](CCC(=O)O)NC(=O)[C@H](CCC(=O)O)NC(=O)[C@H](CC(C)C)NC(=O)[C@H](Cc1ccc(O)cc1)NC(=O)[C@H](CO)NC(=O)[C@H](CO)NC(=O)[C@@H](NC(=O)[C@H](CC(=O)O)NC(=O)[C@H](CO)NC(=O)[C@@H](NC(=O)[C@H](Cc1ccccc1)NC(=O)[C@@H](NC(=O)CNC(=O)[C@H](CCC(=O)O)NC(=O)[C@H](C)NC(=O)CCc1cnc[nH]1)[C@@H](C)O)[C@@H](C)O)C(C)C)C(=O)N[C@@H](C)C(=O)N[C@@H](Cc1c[nH]c2ccccc12)C(=O)N[C@@H](CC(C)C)C(=O)N[C@H](C(=O)N[C@@H](CCCCNc1c(NCCCCCN(O)C(=O)CCC(=O)NCCCCCN(O)C(=O)CCC(=O)NCCCCCN(O)C(C)=O)c(=O)c1=O)C(=O)NCC(=O)N[C@@H](CCCNC(=N)N)C(=O)N[C@@H](CCCCNc1c(NCCCCCN(O)C(=O)CCC(=O)NCCCCCN(O)C(=O)CCC(=O)NCCCCCN(O)C(C)=O)c(=O)c1=O)C(=O)NCC(=O)NCC(=O)N[C@@H](CO)C(=O)N[C@@H](CCCCNC(=O)COCCOCCNC(=O)COCCOCCNC(=O)CC[C@H](NC(=O)CCCCCCCCCCCCCCCCC(=O)O)C(=O)O)C(=O)O)C(C)C` is reported as 0.016 nM (GLP1R; cAMP reporter gene, agonist, CRE luciferase; BHK; without Zr, 0% HSA).
`CCN1C(=O)[C@@H](N)[C@@H](c2ccc(F)cc2)c2c(C)nn(-c3ccccc3)c21` gave an IC50 of over 15000 nM (DCN1-like protein 1).
With `CC(=O)c1cc(O)c2ccccc2c1O` the Kd was 4600 nM (Genome polyprotein, NS5 methyltransferase domain (pol, Dengue virus type 3, UniProt Q6YMS4)).
`CC[C@H](C)[C@H](NC(=O)[C@H](Cc1ccccc1)NC(=O)[C@H](CCC(=O)O)NC(=O)[C@H](CCCNC(=N)N)NC(=O)[C@H](C)NC(=O)[C@H](C)NC(=O)[C@H](CCC(N)=O)NC(=O)[C@H](CCC(=O)O)NC(=O)[C@H](CCC(=O)O)NC(=O)[C@H](CC(C)C)NC(=O)[C@H](Cc1ccc(O)cc1)NC(=O)[C@H](CO)NC(=O)[C@H](CO)NC(=O)[C@H](CCCCNc1c(NCCCCCN(O)C(=O)CCC(=O)NCCCCCN(O)C(=O)CCC(=O)NCCCCCN(O)C(C)=O)c(=O)c1=O)NC(=O)[C@H](CC(=O)O)NC(=O)[C@H](CO)NC(=O)[C@@H](NC(=O)[C@H](Cc1ccccc1)NC(=O)[C@@H](NC(=O)CNC(=O)[C@H](CCC(=O)O)NC(=O)[C@H](C)NC(=O)CCc1cnc[nH]1)[C@@H](C)O)[C@@H](C)O)C(=O)N[C@@H](C)C(=O)N[C@@H](Cc1c[nH]c2ccccc12)C(=O)N[C@@H](CC(C)C)C(=O)N[C@H](C(=O)N[C@@H](CCCNC(=N)N)C(=O)NCC(=O)N[C@@H](CCCNC(=N)N)C(=O)N[C@@H](CCCCNC(=O)COCCOCCNC(=O)COCCOCCNC(=O)CC[C@H](NC(=O)CCCCCCCCCCCCCCCCC(=O)O)C(=O)O)C(=O)NCC(=O)NCC(=O)N[C@@H](CO)C(=O)N[C@@H](CCCCNc1c(NCCCCCN(O)C(=O)CCC(=O)NCCCCCN(O)C(=O)CCC(=O)NCCCCCN(O)C(C)=O)c(=O)c1=O)C(=O)O)C(C)C` has an EC50 of 0.02 nM (GLP1R; cAMP reporter gene, agonist, CRE luciferase; BHK; without Zr, 0% HSA).
`Cc1nn(-c2ccccc2)c2c1[C@H](c1cccs1)[C@H](NC(=O)c1cccc(C(F)(F)F)c1)C(=O)N2` gave an IC50 of over 15000 nM (DCN1-like protein 1).
With `C[C@H]1CN(c2n[nH]c3nc(N[C@H]4CC[C@H](NS(=O)(=O)CCC(F)(F)F)CC4)ncc23)CCO1` the IC50 was at least 20000 nM (Far upstream element-binding protein 2 (KHSRP, Homo sapiens, UniProt Q92945); biochemical).

Excerpt of the above:
With `CC(=O)c1cc(O)c2ccccc2c1O` the Kd was 4600 nM (Genome polyprotein, NS5 methyltransferase domain (pol, Dengue virus type 3, UniProt Q6YMS4)).
